Measurements collected from several papers.
Every numbered part comes from another study and shows a few of its results, in no order. Changes are numbered by the printed parent chain.

Study 1
Target: Protein C-ets-1 (ETS1, Homo sapiens, UniProt P14921, residues 1-441, full length assumed)
Technique: protein-binding microarray
Form: double-stranded DNA, one strand shown
Matrix: in vitro
Tested at: not given
Setting: k-mer, scored over probes, only values ≥0.25
Direction: higher = stronger binding
Construct (chain): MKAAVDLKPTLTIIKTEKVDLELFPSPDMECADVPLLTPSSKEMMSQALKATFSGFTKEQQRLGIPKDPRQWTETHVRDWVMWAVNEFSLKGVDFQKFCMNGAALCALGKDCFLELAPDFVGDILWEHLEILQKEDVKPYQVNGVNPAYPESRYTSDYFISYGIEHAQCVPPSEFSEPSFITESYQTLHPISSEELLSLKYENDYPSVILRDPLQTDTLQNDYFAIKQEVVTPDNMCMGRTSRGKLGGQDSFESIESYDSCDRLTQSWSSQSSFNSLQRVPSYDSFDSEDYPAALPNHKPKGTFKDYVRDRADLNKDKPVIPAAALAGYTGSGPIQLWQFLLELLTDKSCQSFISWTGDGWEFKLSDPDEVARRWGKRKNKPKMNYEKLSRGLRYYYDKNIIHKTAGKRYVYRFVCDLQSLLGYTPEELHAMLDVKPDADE
The E-score of `CGCATCCC` is reported as 0.29.
With `ATCCGCCC` the E-score was 0.417.
`CACATTTC` has an E-score of 0.299.
With `GAGGATAC` the E-score was 0.252.
With `ACTCGGAA` the E-score was 0.258.
For `CCCGGATC`, the E-score was 0.295.
`ACGGATGC` has an E-score of 0.445.
With `ACTACCGG` the E-score was 0.415.
The E-score of `AGGAAGGG` is reported as 0.4.
`ACAGGACG` has an E-score of 0.428.
`ATTGTTCC` has an E-score of 0.272.
For `CCCATGGG`, the E-score was 0.257.
For `CGACAGGA`, the E-score was 0.408.

Study 2
Target: Sal-like protein 4, full length isoform A (SALL4, Homo sapiens, UniProt Q9UJQ4, residues 1-1053)
Sequence of UniProt Q9UJQ4 (whole entry, looked up): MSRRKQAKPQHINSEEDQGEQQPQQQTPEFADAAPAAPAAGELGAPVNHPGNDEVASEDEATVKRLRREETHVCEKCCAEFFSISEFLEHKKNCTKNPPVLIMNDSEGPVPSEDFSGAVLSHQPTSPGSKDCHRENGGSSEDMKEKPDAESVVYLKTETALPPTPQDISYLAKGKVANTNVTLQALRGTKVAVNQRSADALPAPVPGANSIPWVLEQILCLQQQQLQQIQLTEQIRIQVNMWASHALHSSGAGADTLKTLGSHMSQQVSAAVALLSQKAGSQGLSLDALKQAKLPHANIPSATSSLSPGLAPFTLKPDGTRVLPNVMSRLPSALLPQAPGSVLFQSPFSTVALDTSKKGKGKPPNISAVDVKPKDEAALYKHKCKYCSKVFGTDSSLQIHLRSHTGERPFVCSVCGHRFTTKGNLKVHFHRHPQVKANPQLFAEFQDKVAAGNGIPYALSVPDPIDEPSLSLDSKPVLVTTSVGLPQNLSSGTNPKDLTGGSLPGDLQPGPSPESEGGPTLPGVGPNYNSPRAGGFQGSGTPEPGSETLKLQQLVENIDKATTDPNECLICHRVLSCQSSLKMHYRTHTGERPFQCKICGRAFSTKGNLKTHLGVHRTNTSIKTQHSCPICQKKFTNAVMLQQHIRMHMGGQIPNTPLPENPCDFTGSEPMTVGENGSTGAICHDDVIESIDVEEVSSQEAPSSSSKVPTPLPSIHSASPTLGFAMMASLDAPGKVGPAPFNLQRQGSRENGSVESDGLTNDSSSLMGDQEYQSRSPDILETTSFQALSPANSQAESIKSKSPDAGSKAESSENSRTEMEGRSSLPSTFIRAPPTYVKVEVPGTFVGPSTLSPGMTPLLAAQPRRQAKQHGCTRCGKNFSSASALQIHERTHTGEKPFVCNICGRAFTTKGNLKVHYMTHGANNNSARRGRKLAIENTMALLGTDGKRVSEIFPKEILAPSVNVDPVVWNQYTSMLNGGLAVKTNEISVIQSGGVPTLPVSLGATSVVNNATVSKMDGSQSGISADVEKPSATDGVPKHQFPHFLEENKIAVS
Technique: universal PBM
Form: double-stranded DNA, one strand shown
Matrix: in vitro
Tested at: 600 nM
Setting: 8-mer, flanks averaged, mean of replicates
Direction: higher = stronger binding
`CTGCCTGA` gave an E-score of 0.0387.
For `CTAGCGCA`, the E-score was -0.184.
With `ACGACCAC` the E-score was -0.153.
With `CACCGGGG` the E-score was -0.428.
With `ATGCCAAG` the E-score was 0.0365.
The E-score of `ACTTTATG` is reported as 0.269.
The E-score of `ACGTGGCT` is reported as -0.171.
`ACGCTGAT` gave an E-score of 0.0768.
For `ACTACTCA`, the E-score was 0.163.
With `ACCCACAT` the E-score was 0.124.
The E-score of `GTACTCCA` is reported as -0.192.
The E-score of `ACTCACCA` is reported as 0.0534.
`CAGTCTAG` has an E-score of -0.148.
With `CCATGGTC` the E-score was -0.278.
The E-score of `AGTAACCC` is reported as -0.01.
`AAAAAGTT` has an E-score of 0.235.
`CTCGCGTC` has an E-score of -0.152.
For `ACACCAAA`, the E-score was 0.152.
The E-score of `GCTCGTCA` is reported as -0.167.
For `GAGGCTGA`, the E-score was -0.155.
`GACCAGGC` has an E-score of -0.269.

Study 3
Target: Interferon regulatory factor 7, full length, phosphomimetic (IRF7, Homo sapiens, UniProt Q92985, residues 1-503, S101K/S471D/S472D/S475D/S476D/S477D/S483D/S484D/S487D)
Technique: protein-binding microarray
Form: double-stranded DNA, one strand shown
Matrix: in vitro
Tested at: 250 nM
Setting: 60-bp whole probe
Added: salmon DNA 0.4 mg/ml
Reference: random background probes
Direction: higher = stronger binding
All sequences stand within: GCCTAGCAC … GTCTTGATTCGCTTGACGCTGCTG
Target sequence (chain): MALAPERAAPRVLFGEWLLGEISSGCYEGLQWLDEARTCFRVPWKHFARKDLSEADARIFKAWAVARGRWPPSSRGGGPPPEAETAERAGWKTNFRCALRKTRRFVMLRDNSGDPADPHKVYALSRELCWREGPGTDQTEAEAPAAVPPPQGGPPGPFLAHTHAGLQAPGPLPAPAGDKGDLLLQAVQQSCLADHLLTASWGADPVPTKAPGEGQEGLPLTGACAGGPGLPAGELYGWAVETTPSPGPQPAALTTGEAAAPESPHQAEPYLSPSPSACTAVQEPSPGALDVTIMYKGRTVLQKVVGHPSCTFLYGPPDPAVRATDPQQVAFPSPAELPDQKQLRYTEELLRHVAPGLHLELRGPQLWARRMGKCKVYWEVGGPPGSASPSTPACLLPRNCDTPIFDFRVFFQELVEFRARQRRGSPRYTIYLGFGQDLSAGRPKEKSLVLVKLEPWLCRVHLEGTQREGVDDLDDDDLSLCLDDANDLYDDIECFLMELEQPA
`GGTGGTGATGGTGAGTAAGAGTGCTAG` gave a log fluorescence of -1.57 z-score.
With `GGCGGTCTCGGTATCGGGACGTGCTAG` the log fluorescence was 1.72 z-score.
`TTAGAACTGGGGTATCGATTGGTGCTA` has a log fluorescence of 0.404 z-score.
For `GTGTTCTGGGCAGCAGAGGGGTGCTAG`, the log fluorescence was 0.382 z-score.
For `TTAGGTTTCCTTCTCGTTTAGTGCTAG`, the log fluorescence was 2.66 z-score.
`GACGCACTGAGACTGGAGACGTGCTAG` gave a log fluorescence of -0.233 z-score.
With `GACGGACCGGACTTTCGGGACGTGCTA` the log fluorescence was -0.285 z-score.
`TTAGTTTTCAGTATCGATTAGTGCTAG` has a log fluorescence of 2.49 z-score.
The log fluorescence of `GACGTTATCGGTCTCGGGACGTGCTAG` is reported as 0.423 z-score.
`CCCTGTCTGTCCAGAAACCCGTGCTAG` has a log fluorescence of 0.0513 z-score.
For `AAGTTTCTCCTTTGTAAATAGTGCTAG`, the log fluorescence was 4.93 z-score.
`GACGGAATCGACTATCGGGACGTGCTA` gave a log fluorescence of -0.0786 z-score.
With `TACGGTCTCCTTTTCCTGACGTGCTAG` the log fluorescence was 1.47 z-score.
The log fluorescence of `TTTGGTTTCCTTATCCTTTAGTGCTAG` is reported as 3.73 z-score.
For `TTAGATTTCACTTCCGATTAGTGCTAG`, the log fluorescence was 1.4 z-score.
For `TCACATGTCTGTGTCACACTGTGCTAG`, the log fluorescence was 0.0437 z-score.
For `AACGATTTCAGTTTCGAGACGTGCTAG`, the log fluorescence was 4.98 z-score.
For `TTTTTTTTTTGTATTTTTGAGTGCTAG`, the log fluorescence was 0.847 z-score.
`GGTTTTCTGGTTCCCATTCCGTGCTAG` has a log fluorescence of 5.28 z-score.
With `TACGGTTCCCTTTTCCTGACGTGCTAG` the log fluorescence was 3.26 z-score.
The log fluorescence of `TCATGTTCCCTCATCAGACTGTGCTAG` is reported as 1.3 z-score.
`TCAGCTCTTATATACCTGACTGTGCTA` has a log fluorescence of 0.304 z-score.
For `TCAGCTTTCCTTTGCTTACTGTGCTAG`, the log fluorescence was 0.53 z-score.
For `GACGGTTTCGGAGTGGGGACGTGCTAG`, the log fluorescence was 2.72 z-score.
For `TTAGTTATCAGTCTCGATTAGTGCTAG`, the log fluorescence was 1.86 z-score.

Study 4
Target: CEBPE, bZIP domain (human)
Technique: DHFR protein complementation
Matrix: yeast
Setting: single substitutions, most at no-binding floor
Reference: wild-type JUN-FOS pair
Direction: higher = stronger binding
Starting sequence: JUN, bZIP domain (human); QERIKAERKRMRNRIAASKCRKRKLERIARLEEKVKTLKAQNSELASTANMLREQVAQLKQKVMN; partner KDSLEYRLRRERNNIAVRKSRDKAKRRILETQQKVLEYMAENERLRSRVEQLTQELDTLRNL
The binding fitness of `A57M` is reported as -1.16 natural log.
For `L45Q`, the binding fitness was -1.46 natural log.
`K39H` has a binding fitness of -1.29 natural log.
For `L59S`, the binding fitness was -1.45 natural log.
With `L38D` the binding fitness was -1.53 natural log.
The binding fitness of `A57H` is reported as -1.22 natural log.
With `L31Q` the binding fitness was -1.5 natural log.
With `R53K` the binding fitness was -0.935 natural log.
With `T37S` the binding fitness was -1.07 natural log.
`L31K` has a binding fitness of -1.47 natural log.
For `L31I`, the binding fitness was -1.41 natural log.
`L45W` gave a binding fitness of -1.49 natural log.
`A29F` has a binding fitness of -1.32 natural log.
With `A29K` the binding fitness was -1.08 natural log.

Study 5
Target: Histone acetyltransferase KAT6A, both winged helices, GST fusion (KAT6A, Homo sapiens, UniProt Q92794, residues 1-181)
Technique: protein binding microarray
Form: double-stranded DNA, one strand shown
Matrix: in vitro
Tested at: not given
Setting: 8-mer, flanks averaged, mean of 2 arrays, mostly near background
Reference: not given
Direction: higher = stronger binding
Construct (chain): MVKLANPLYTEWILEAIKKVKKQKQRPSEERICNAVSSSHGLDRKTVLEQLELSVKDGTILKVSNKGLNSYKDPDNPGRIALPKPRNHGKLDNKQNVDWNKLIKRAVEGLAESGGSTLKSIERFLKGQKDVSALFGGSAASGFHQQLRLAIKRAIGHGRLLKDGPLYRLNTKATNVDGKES
For `ACAAGACC`, the E-score was 0.00146.
`TCGCAGCA` has an E-score of -0.00163.
For `AGCATTCC`, the E-score was 0.0681.
For `CGCCAAGA`, the E-score was 0.0898.
The E-score of `AATACCAT` is reported as -0.05.
For `AAGCATCA`, the E-score was -0.0938.
`ACTTGGTG` has an E-score of -0.272.
For `ATGCTAGA`, the E-score was -0.171.
With `ACGGTCGC` the E-score was 0.188.
`AACGTAAG` gave an E-score of -0.0779.
`AACTTAAC` gave an E-score of 0.0271.
With `ATAGACTG` the E-score was -0.0447.
`TTCCACAA` has an E-score of -0.19.
`GGATACAC` has an E-score of -0.019.
With `AGCCTAAG` the E-score was -0.157.
With `GTCTACAA` the E-score was -0.0825.
`ATGGGAAC` has an E-score of -0.0923.
With `GCTCATAC` the E-score was 0.0399.
`AGATAGCC` has an E-score of -0.108.
The E-score of `GAGAGTGA` is reported as -0.181.
`CGCTGTAC` has an E-score of 0.178.
For `AAAGCGTA`, the E-score was 0.128.
For `AACGAACT`, the E-score was -0.0922.
The E-score of `AGGAAAAT` is reported as -0.124.
For `ACAGAAAT`, the E-score was -0.183.

Study 6
Target: CCND3, cyclin fold, Cln2 fusion (human)
Technique: yeast growth competition, sequencing
Matrix: yeast
Setting: weak parent motif
Reference: not given
Direction: higher = stronger binding
Starting sequence: ITGB3BP docking peptide (human); MPVKRSLKLDGLL; partner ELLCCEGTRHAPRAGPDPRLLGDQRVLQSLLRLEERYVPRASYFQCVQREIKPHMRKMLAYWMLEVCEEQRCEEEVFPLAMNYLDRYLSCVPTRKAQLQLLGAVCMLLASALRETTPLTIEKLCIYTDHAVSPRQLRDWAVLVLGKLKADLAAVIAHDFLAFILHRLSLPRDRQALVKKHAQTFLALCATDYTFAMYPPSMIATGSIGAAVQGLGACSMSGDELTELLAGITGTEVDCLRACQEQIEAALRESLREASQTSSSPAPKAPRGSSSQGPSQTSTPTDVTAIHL
`MPVKRSLKLDGAL [L12A]` — result for “normalised enrichment score”: 0.106.
For `MPAKRSLKLDGLL [V3A]`, “normalised enrichment score” read 0.223.
`MPVKRSLKLDALL [G11A]`: “normalised enrichment score” 0.111.
`MPVKKSLKFDGLL [R5K L9F]` — result for “normalised enrichment score”: 0.0815.
For `MPVARSLKLDGLL [K4A]`, “normalised enrichment score” read 0.117.
`MPVKRSAKLDGLL [L7A]` — result for “normalised enrichment score”: 0.206.
`MPVKRSLKADGLL [L9A]`: “normalised enrichment score” 0.183.

Mixed results
With `PhoQ, residues 284 288 289 292 302 303 SSTLSG` the fold induction was 13.7 (PhoP, residues 12 14 15 18 19 TQAIL (Escherichia coli, UniProt P23836); Sort-seq, refers to: YFP reporter; E. coli; PhoQ-PhoP variant library, added: 10 µM Mg2+; reference: high Mg2+ state, higher = stronger signaling).

Excerpt of the above (study 3):
`GACGCACTGAGACTGGAGACGTGCTAG` gave a log fluorescence of -0.233 z-score.
With `GACGGACCGGACTTTCGGGACGTGCTA` the log fluorescence was -0.285 z-score.
`TTAGTTTTCAGTATCGATTAGTGCTAG` has a log fluorescence of 2.49 z-score.
The log fluorescence of `GACGTTATCGGTCTCGGGACGTGCTAG` is reported as 0.423 z-score.
`CCCTGTCTGTCCAGAAACCCGTGCTAG` has a log fluorescence of 0.0513 z-score.
For `AAGTTTCTCCTTTGTAAATAGTGCTAG`, the log fluorescence was 4.93 z-score.
`GACGGAATCGACTATCGGGACGTGCTA` gave a log fluorescence of -0.0786 z-score.
With `TACGGTCTCCTTTTCCTGACGTGCTAG` the log fluorescence was 1.47 z-score.
The log fluorescence of `TTTGGTTTCCTTATCCTTTAGTGCTAG` is reported as 3.73 z-score.
For `TTAGATTTCACTTCCGATTAGTGCTAG`, the log fluorescence was 1.4 z-score.
For `TCACATGTCTGTGTCACACTGTGCTAG`, the log fluorescence was 0.0437 z-score.
For `AACGATTTCAGTTTCGAGACGTGCTAG`, the log fluorescence was 4.98 z-score.
For `TTTTTTTTTTGTATTTTTGAGTGCTAG`, the log fluorescence was 0.847 z-score.
